Results collected from several papers.
± gives the spread as reported.

With `CC[C@H](C)[C@H](NC(=O)[C@H](CCC(N)=O)NC(=O)[C@H](CCCCN)NC(=O)[C@H](CCSC)NC(=O)[C@H](CO)NC(=O)[C@H](CCC(=O)O)NC(=O)[C@H](CCC(N)=O)NC(=O)[C@@H]1CCCN1C(=O)[C@H](CS)NC(=O)[C@@H](NC(=O)[C@H](CCCCN)NC(=O)[C@@H](NC(=O)CNC(=O)[C@@H](NC(=O)[C@@H]1CCCN1C(=O)[C@H](Cc1ccccc1)NC(=O)[C@H](Cc1ccccc1)NC(=O)[C@H](C)NC(=O)[C@H](CO)NC(=O)[C@H](CCCNC(=N)N)NC(=O)[C@H](CCCCN)NC(=O)[C@@H](NC(=O)[C@H](CCCNC(=N)N)NC(=O)[C@H](Cc1c[nH]cn1)NC(=O)[C@H](CCCCN)NC(=O)[C@H](C)NC(=O)[C@H](CC(C)C)NC(=O)[C@H](CC(=O)O)NC(=O)[C@H](Cc1ccccc1)NC(=O)[C@@H](NC(=O)[C@H](CCCNC(=N)N)NC(=O)[C@H](CCCNC(=N)N)NC(=O)[C@H](CCSC)NC(=O)[C@@H](NC(=O)[C@H](CO)NC(=O)[C@H](CCSC)NC(=O)[C@H](CCCCN)NC(=O)[C@H](Cc1ccc(O)cc1)NC(=O)[C@H](CCSC)NC(=O)[C@@H](N)CCCCN)[C@@H](C)O)[C@@H](C)CC)[C@@H](C)O)[C@@H](C)O)C(C)C)C(C)C)C(=O)N[C@@H](CC(C)C)C(=O)O` the CC50 was 48.7 µM (HaCaT; cell viability, MTT).
With `CC(C)(O)Cc1nc(N)[nH]c(=O)c1Br` the CC50 was > 100 µM (CRFK; cytotoxicity, MTS).
`C=C(C)[C@]12C[C@@H](C)[C@@]34O[C@](CCCCCCCCC)(O[C@@H]1[C@@H]3[C@@H]1O[C@]1(CO)[C@@H](O)[C@]1(O)C(=O)C(C)=C[C@H]14)O2` gave a CC50 of 9.57 ± 0.86 µM (MT-4; cytotoxicity).
`C=C[C@@H]1C[C@]1(NC(=O)[C@@H]1C[C@@H](Oc2ncc(OC)c3ccc(Cl)cc23)CN1C(=O)[C@@H](NC(=O)OC(C)(C)C)C(C)(C)C)C(=O)NS(=O)(=O)C1CC1` gave a CC50 of > 50 µM (HEK293T; cell viability, MTT; 48 (unit not given)).
`CC[C@H](C)[C@H](NC(=O)[C@H](CCCNC(=N)N)NC(=O)[C@@H](NC(=O)[C@H](CC(C)C)NC(=O)[C@H](Cc1c[nH]c2ccccc12)NC(=O)[C@H](Cc1ccc(O)cc1)NC(=O)[C@@H](NC(=O)[C@H](CO)NC(=O)[C@@H](NC(=O)[C@H](CCCNC(=N)N)NC(=O)[C@H](CCC(N)=O)NC(=O)[C@H](CCCNC(=N)N)NC(=O)[C@@H]1CCCN1C(=O)[C@H](CC(C)C)NC(=O)[C@H](CO)NC(=O)[C@@H](NC(=O)[C@H](CC(C)C)NC(=O)[C@@H]1CCCN1C(=O)[C@H](CCC(N)=O)NC(=O)[C@H](CCCCN)NC(=O)[C@H](Cc1c[nH]cn1)NC(=O)[C@H](CS)NC(=O)[C@H](CCCNC(=N)N)NC(=O)[C@H](CCCCN)NC(=O)[C@H](CO)NC(=O)[C@H](CC(C)C)NC(=O)[C@H](CO)NC(=O)[C@H](Cc1ccccc1)NC(=O)[C@H](CC(C)C)NC(=O)[C@H](CCCCN)NC(=O)[C@H](Cc1c[nH]cn1)NC(=O)[C@@H](NC(=O)[C@@H](NC(=O)[C@H](CCCCN)NC(=O)[C@H](CCC(N)=O)NC(=O)[C@H](C)NC(=O)[C@H](CCCCN)NC(=O)[C@H](CC(C)C)NC(=O)[C@H](Cc1ccccc1)NC(=O)[C@H](CC(C)C)NC(=O)[C@H](CCC(N)=O)NC(=O)[C@H](CCCCN)NC(=O)[C@@H](N)CCSC)[C@@H](C)CC)C(C)C)[C@@H](C)CC)[C@@H](C)O)[C@@H](C)O)[C@@H](C)O)C(=O)O` gave a CC50 of 47.9 µM (HaCaT; cell viability, MTT).
With `CCCCCc1nc(N)[nH]c(=O)c1Br` the CC50 was > 100 µM (CRFK; cytotoxicity, MTS).
`CC(C)(C)OC(=O)N[C@H]1CCCCC/C=C\[C@@H]2C[C@@]2(C(=O)NS(=O)(=O)C2CC2)NC(=O)[C@@H]2C[C@@H](OC(=O)N3Cc4cccc(F)c4C3)CN2C1=O` gave a CC50 of 31.1 µM (HEK293T; cell viability, MTT; 48 (unit not given)).
`Cc1ccccc1-n1nnnc1Sc1ccc(C(=O)c2ccccc2)cc1[N+](=O)[O-]` gave a CC50 of > 50 µM (A549-hACE2-TMPRSS2; 24 h).
`CC[C@H](C)[C@H](NC(=O)[C@H](C)NC(=O)[C@H](CCCCN)NC(=O)[C@H](CC(N)=O)NC(=O)[C@@H](NC(=O)[C@H](CCCCN)NC(=O)[C@H](CCCCN)NC(=O)[C@H](CC(C)C)NC(=O)[C@@H](NC(=O)[C@H](CCCCN)NC(=O)CNC(=O)[C@@H](NC(=O)CNC(=O)[C@H](CC(N)=O)NC(=O)[C@@H](NC(=O)CNC(=O)[C@H](Cc1ccc(O)cc1)NC(=O)[C@H](CCCNC(=N)N)NC(=O)[C@H](CCSC)NC(=O)[C@@H](NC(=O)[C@H](CCSC)NC(=O)[C@H](C)NC(=O)[C@H](CC(C)C)NC(=O)[C@H](CCC(N)=O)NC(=O)[C@H](CCCCN)NC(=O)[C@H](CCCCN)NC(=O)[C@@H](NC(=O)[C@@H](N)CCCNC(=N)N)[C@@H](C)O)C(C)C)C(C)C)C(C)C)[C@@H](C)CC)[C@@H](C)CC)C(=O)N[C@H](C(=O)N[C@@H](CO)C(=O)N[C@@H](CCCCN)C(=O)N[C@@H](CCCCN)C(=O)N[C@@H](CC(N)=O)C(=O)N[C@@H](CCCCN)C(=O)O)C(C)C` has a CC50 of 27.6 µM (HaCaT; cell viability, MTT).
The CC50 of `Nc1nc(O)c2ncn(COC(CO)CO)c2n1` is reported as > 100 µM (CRFK; MTS).
The CC50 of `COc1ccc(/C=C/c2nc(N)[nH]c(=O)c2Br)cc1OC` is reported as > 100 µM (CRFK; cytotoxicity, MTS).
For `CC[C@H](C)[C@H](NC(=O)[C@H](CCCCN)NC(=O)[C@H](CCCNC(=N)N)NC(=O)[C@H](CCC(N)=O)NC(=O)[C@H](CCCNC(=N)N)NC(=O)CNC(=O)[C@H](Cc1ccccc1)NC(=O)[C@H](CCCNC(=N)N)NC(=O)[C@H](CCCNC(=N)N)NC(=O)[C@H](Cc1ccccc1)NC(=O)[C@H](CC(C)C)NC(=O)[C@@H]1CCCN1C(=O)[C@@H](NC(=O)[C@H](CC(N)=O)NC(=O)[C@@H](NC(=O)[C@@H](NC(=O)[C@H](CO)NC(=O)[C@H](CC(N)=O)NC(=O)[C@H](CCCNC(=N)N)NC(=O)[C@@H]1CCCN1C(=O)[C@@H](NC(=O)[C@@H]1CCCN1C(=O)[C@@H](N)Cc1ccccc1)[C@@H](C)CC)[C@@H](C)O)C(C)C)[C@@H](C)CC)C(=O)NCC(=O)NCC(=O)N[C@@H](CCCNC(=N)N)C(=O)NCC(=O)N[C@@H](CCCNC(=N)N)C(=O)N[C@H](C(=O)N[C@H](C(=O)N[C@@H](CO)C(=O)N1CCC[C@H]1C(=O)N[C@@H](Cc1ccc(O)cc1)C(=O)N[C@@H](CCCNC(=N)N)C(=O)N[C@H](C(=O)N1CCC[C@H]1C(=O)N[C@H](C(=O)N[C@@H](CC(C)C)C(=O)N[C@@H](CCCNC(=N)N)C(=O)N[C@@H](CCCNC(=N)N)C(=O)N[C@@H](Cc1c[nH]cn1)C(=O)N[C@@H](CCCNC(=N)N)C(=O)N[C@@H](Cc1ccc(O)cc1)C(=O)N[C@@H](CO)C(=O)N[C@H](C(=O)N[C@@H](Cc1ccccc1)C(=O)N[C@@H](CCCNC(=N)N)C(=O)O)[C@@H](C)CC)C(C)C)[C@@H](C)O)[C@@H](C)CC)[C@@H](C)CC`, the CC50 was 47.3 µM (HaCaT; cell viability, MTT).
The CC50 of `CC[C@@H]1C[C@]1(NC(=O)[C@@H]1C[C@@H]2CN1C(=O)[C@H](C(C)(C)C)NC(=O)OCC(C)(C)CCCCc1cccc3c1CN(C3)C(=O)O2)C(=O)NS(=O)(=O)C1CC1` is reported as > 50 µM (HEK293T; cell viability, MTT; 48 (unit not given)).
`COc1ccc(NC(=O)N2CCCCN3[C@H](CN(C)C)[C@H](c4ccc(C#Cc5ccccc5)cc4)[C@@H]3C2)cc1` has a CC50 of 5 µM (HEK-293T).

Repeated from above:
`CC[C@H](C)[C@H](NC(=O)[C@H](C)NC(=O)[C@H](CCCCN)NC(=O)[C@H](CC(N)=O)NC(=O)[C@@H](NC(=O)[C@H](CCCCN)NC(=O)[C@H](CCCCN)NC(=O)[C@H](CC(C)C)NC(=O)[C@@H](NC(=O)[C@H](CCCCN)NC(=O)CNC(=O)[C@@H](NC(=O)CNC(=O)[C@H](CC(N)=O)NC(=O)[C@@H](NC(=O)CNC(=O)[C@H](Cc1ccc(O)cc1)NC(=O)[C@H](CCCNC(=N)N)NC(=O)[C@H](CCSC)NC(=O)[C@@H](NC(=O)[C@H](CCSC)NC(=O)[C@H](C)NC(=O)[C@H](CC(C)C)NC(=O)[C@H](CCC(N)=O)NC(=O)[C@H](CCCCN)NC(=O)[C@H](CCCCN)NC(=O)[C@@H](NC(=O)[C@@H](N)CCCNC(=N)N)[C@@H](C)O)C(C)C)C(C)C)C(C)C)[C@@H](C)CC)[C@@H](C)CC)C(=O)N[C@H](C(=O)N[C@@H](CO)C(=O)N[C@@H](CCCCN)C(=O)N[C@@H](CCCCN)C(=O)N[C@@H](CC(N)=O)C(=O)N[C@@H](CCCCN)C(=O)O)C(C)C` has a CC50 of 27.6 µM (HaCaT; cell viability, MTT).
The CC50 of `Nc1nc(O)c2ncn(COC(CO)CO)c2n1` is reported as > 100 µM (CRFK; MTS).
